{"data": "Results gathered from unrelated publications", "note": "Every numbered part comes from another study and shows a few of its results, in no order. Positions count from the first letter of the parent shown.", "chain of UniProt P00519 (whole entry, unmodified, looked up)": "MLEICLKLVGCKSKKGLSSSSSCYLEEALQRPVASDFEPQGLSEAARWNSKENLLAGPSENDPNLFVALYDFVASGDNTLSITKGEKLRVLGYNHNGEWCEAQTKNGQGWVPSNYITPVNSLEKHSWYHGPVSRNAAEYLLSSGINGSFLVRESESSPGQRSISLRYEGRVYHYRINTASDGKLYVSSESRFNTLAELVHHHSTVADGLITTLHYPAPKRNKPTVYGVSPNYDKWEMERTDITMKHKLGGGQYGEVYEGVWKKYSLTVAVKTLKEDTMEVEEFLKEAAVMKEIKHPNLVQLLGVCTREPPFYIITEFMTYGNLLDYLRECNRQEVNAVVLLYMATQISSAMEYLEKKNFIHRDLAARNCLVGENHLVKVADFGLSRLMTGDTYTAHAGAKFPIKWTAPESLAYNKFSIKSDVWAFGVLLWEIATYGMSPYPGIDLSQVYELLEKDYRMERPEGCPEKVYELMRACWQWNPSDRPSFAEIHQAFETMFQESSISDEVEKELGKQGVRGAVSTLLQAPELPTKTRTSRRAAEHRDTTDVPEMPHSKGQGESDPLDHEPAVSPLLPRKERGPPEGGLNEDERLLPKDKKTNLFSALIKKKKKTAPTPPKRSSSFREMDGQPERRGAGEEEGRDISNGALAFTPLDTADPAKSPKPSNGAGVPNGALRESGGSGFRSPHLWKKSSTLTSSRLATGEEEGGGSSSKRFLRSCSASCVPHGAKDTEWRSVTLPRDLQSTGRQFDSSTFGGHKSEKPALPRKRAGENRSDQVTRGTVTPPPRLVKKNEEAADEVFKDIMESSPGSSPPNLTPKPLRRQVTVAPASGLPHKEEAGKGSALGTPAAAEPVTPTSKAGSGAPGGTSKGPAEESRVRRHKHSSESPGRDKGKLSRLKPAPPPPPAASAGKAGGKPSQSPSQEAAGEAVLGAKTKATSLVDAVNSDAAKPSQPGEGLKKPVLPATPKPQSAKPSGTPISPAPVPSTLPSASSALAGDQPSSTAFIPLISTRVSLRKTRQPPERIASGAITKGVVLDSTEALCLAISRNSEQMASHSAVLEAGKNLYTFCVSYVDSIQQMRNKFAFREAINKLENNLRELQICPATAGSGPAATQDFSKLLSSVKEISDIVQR", "chain of UniProt Q02156 (whole entry, looked up)": "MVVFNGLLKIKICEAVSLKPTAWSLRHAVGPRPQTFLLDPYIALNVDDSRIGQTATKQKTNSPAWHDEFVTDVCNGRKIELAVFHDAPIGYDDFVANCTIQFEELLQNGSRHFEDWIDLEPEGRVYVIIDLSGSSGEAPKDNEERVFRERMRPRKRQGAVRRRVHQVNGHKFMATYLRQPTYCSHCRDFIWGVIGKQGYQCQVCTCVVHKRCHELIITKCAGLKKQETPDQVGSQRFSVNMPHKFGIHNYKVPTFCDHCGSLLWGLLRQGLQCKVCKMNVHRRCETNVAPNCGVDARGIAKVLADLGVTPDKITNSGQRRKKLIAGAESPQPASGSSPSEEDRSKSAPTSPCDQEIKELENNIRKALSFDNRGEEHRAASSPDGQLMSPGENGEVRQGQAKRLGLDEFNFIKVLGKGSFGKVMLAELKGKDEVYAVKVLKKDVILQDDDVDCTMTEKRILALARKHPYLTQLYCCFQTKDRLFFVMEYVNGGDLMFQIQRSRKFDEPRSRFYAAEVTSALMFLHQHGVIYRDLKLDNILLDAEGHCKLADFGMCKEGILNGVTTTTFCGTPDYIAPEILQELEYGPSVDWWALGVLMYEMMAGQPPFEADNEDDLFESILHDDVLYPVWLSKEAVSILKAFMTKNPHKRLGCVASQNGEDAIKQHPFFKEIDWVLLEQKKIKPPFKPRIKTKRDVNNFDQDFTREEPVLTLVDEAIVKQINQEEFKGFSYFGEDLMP", "chain of UniProt P06213 (whole entry, looked up)": "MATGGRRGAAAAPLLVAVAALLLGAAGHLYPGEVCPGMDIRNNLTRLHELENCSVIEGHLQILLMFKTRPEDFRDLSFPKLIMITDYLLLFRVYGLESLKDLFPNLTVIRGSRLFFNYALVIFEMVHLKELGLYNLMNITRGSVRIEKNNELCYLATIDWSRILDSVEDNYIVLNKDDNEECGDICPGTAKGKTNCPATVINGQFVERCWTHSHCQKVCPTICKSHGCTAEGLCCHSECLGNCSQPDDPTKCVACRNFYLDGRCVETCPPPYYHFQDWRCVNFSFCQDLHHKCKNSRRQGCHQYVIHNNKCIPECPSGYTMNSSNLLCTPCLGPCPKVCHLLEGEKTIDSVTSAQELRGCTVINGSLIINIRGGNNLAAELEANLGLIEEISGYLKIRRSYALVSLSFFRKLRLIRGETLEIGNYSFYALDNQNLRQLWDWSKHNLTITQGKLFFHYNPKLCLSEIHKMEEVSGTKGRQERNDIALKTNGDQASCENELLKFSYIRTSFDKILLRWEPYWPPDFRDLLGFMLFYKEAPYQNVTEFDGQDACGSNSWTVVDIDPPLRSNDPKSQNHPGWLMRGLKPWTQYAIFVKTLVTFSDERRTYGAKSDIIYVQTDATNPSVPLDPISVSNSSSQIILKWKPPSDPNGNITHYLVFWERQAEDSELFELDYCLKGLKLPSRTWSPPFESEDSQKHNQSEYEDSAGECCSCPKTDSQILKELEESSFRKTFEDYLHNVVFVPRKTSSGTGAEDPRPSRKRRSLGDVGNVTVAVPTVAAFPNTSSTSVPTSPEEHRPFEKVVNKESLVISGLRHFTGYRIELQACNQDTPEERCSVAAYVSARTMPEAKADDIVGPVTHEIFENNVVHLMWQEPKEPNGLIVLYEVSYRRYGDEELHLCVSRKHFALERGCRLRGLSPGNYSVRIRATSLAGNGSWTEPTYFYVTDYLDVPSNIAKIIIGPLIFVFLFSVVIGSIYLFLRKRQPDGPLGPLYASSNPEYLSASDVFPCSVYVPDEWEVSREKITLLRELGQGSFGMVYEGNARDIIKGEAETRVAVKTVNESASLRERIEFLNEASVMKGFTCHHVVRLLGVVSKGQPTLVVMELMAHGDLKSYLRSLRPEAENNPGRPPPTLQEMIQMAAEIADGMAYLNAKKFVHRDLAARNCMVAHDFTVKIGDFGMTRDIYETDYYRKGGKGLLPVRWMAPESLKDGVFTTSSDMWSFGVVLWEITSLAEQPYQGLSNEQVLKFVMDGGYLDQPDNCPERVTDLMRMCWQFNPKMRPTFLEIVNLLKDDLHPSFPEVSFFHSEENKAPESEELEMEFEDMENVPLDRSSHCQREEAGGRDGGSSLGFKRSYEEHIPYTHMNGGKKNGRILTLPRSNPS", "chain of UniProt Q8NI60 (whole entry, looked up)": "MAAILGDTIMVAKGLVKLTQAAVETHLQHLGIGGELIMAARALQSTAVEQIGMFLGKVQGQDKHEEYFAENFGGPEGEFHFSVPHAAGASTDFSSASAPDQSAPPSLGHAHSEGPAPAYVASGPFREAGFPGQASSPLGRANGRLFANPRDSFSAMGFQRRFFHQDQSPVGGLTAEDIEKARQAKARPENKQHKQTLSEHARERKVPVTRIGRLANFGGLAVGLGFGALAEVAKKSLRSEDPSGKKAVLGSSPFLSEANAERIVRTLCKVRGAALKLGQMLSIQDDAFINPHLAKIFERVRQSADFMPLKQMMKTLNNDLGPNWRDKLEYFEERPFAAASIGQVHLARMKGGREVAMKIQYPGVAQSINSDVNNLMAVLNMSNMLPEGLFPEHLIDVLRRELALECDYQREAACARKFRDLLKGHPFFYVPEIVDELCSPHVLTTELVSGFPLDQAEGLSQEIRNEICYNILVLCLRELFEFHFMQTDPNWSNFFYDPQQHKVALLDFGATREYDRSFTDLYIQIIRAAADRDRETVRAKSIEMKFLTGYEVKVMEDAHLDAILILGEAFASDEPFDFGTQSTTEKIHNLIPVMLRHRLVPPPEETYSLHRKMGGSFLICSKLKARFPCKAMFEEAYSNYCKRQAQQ", "chain of UniProt Q8WU08 (whole entry, looked up)": "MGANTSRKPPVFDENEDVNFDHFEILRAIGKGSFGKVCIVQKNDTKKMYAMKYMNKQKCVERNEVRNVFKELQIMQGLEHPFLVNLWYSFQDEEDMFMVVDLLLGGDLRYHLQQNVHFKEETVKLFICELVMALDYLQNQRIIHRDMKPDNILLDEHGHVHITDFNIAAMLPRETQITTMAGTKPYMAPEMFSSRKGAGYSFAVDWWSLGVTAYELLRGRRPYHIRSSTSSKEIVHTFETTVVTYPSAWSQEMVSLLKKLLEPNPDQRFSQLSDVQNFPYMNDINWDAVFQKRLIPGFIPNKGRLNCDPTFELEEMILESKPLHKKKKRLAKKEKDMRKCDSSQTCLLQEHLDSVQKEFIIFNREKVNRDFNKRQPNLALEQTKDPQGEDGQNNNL"}
{"data": "Set 1", "target": "CCND3, cyclin fold, Cln2 fusion (human)", "technique": "yeast growth competition, sequencing", "matrix": "yeast", "setting": "weak parent motif", "relative to": "not given", "reading": "higher = stronger binding", "parent": "CDKN1A docking peptide (human); SKACRRLFGPVDS; partner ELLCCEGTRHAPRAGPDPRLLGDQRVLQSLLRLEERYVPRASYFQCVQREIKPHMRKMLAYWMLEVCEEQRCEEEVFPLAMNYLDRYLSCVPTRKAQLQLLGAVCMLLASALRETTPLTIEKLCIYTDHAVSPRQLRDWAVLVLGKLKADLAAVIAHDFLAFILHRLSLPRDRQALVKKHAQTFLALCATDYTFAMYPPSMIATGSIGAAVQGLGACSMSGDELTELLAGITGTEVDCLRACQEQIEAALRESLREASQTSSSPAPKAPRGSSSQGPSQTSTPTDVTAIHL"}
{"Variant": "SKACPRLFGPVDS [R5P]", "normalised enrichment score": -0.132}
{"Variant": "SKACRRYFGPVDS [L7Y]", "normalised enrichment score": 0.408}
{"Variant": "SKACRRLFGPGDS [V11G]", "normalised enrichment score": 0.0823}
{"Variant": "SKACRRLFEPVDS [G9E]", "normalised enrichment score": 0.455}
{"Variant": "SKACIRLFGPVDS [R5I]", "normalised enrichment score": 0.32}
{"Variant": "SKAGRRLFGPVDS [C4G]", "normalised enrichment score": 0.189}
{"Variant": "SKQCRRLFGPVDS [A3Q]", "normalised enrichment score": 0.243}
{"Variant": "SKACRRLFCPVDS [G9C]", "normalised enrichment score": 0.245}
{"data": "Set 2", "target": "Inhibitor of nuclear factor kappa-B kinase subunit beta (IKBKB, Homo sapiens, UniProt O14920)", "effect on": "enzyme activity", "action": "inhibitor", "tested at": "0.5 µM", "relative to": "control", "chain of UniProt O14920 (whole entry, looked up)": "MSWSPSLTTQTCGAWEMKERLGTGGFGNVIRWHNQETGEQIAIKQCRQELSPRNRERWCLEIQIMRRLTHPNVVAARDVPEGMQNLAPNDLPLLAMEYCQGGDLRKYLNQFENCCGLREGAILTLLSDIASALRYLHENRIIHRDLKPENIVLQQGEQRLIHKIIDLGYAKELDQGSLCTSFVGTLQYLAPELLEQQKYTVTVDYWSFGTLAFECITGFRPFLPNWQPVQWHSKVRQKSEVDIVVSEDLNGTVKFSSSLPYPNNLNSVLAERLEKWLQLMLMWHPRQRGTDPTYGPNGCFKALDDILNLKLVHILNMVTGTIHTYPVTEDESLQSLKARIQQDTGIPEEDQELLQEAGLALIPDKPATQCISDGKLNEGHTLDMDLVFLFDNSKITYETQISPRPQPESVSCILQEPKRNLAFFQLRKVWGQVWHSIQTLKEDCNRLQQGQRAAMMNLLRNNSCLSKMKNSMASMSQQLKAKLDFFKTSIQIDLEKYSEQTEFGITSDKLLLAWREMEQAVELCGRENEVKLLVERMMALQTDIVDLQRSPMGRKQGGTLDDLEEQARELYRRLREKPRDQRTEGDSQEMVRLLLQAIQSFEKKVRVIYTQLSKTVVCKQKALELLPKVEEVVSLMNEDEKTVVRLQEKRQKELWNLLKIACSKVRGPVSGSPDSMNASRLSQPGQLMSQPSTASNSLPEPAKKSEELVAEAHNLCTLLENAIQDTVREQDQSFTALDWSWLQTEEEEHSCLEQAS"}
{"Compound": "Cc1nc(-c2ccccc2)c(-c2ccncc2)o1", "remaining activity": "105%"}
{"Compound": "Nc1ccc2ncnc(NCCc3ccc(Oc4ccccc4)cc3)c2c1", "remaining activity": "100%"}
{"Compound": "O=C(O)c1ccc2c3c1cccc3c(=O)n1c3ccccc3nc21", "remaining activity": "109%"}
{"Compound": "CCOC(=O)c1c(C)[nH]c(/C=C2\\C(=O)Nc3ccccc32)c1C", "remaining activity": "101%"}
{"Compound": "C#Cc1cccc(Nc2ncnc3cc(OCCOC)c(OCCOC)cc23)c1", "remaining activity": "83.5%"}
{"data": "Set 3", "SMILES": "CCc1ccccc1C(=O)Nc1n[nH]c2c(C)c(F)c(C3C(C#N)=C(C)N(C)C(C)=C3C#N)cc12", "tested at": "1 µM"}
{"target": "MAP3K20 (Homo sapiens, UniProt Q9NYL2)", "test": "cell-free assay, competition with immobilised ligand", "remaining binding [%]": 90}
{"target": "STK32A (Homo sapiens, UniProt Q8WU08)", "test": "binding, competition with immobilised ligand", "remaining binding [%]": 100}
{"target": "CDK18 (Homo sapiens, UniProt Q07002)", "test": "cell-free assay, competition with immobilised ligand", "remaining binding [%]": 75}
{"target": "COQ8A (Homo sapiens, UniProt Q8NI60)", "test": "cell-free assay, competition with immobilised ligand", "remaining binding [%]": 84}
{"target": "PRKCE (Homo sapiens, UniProt Q02156)", "test": "cell-free assay, competition with immobilised ligand", "remaining binding [%]": 19}
{"target": "Insulin receptor (INSR, Homo sapiens, UniProt P06213)", "test": "cell-free assay, competition with immobilised ligand", "remaining binding [%]": 100}
{"target": "Tyrosine-protein kinase ABL1, non-phosphorylated (ABL1, Homo sapiens, UniProt P00519, F317I)", "test": "binding, competition with immobilised ligand", "remaining binding [%]": 100}
{"target": "CDC42BPG (Homo sapiens, UniProt Q6DT37)", "test": "competition binding", "remaining binding [%]": 93}
{"target": "Mast/stem cell growth factor receptor Kit, autoinhibited (KIT, Homo sapiens, UniProt P10721)", "test": "cell-free assay, competition with immobilised ligand", "remaining binding [%]": 100}
{"data": "Set 4", "target": "RNA binding protein fox-1 homolog 2, RRM domain, GST-SBP tag (RBFOX2, Homo sapiens, UniProt O43251-10, residues 100-194)", "technique": "RNA Bind-n-Seq", "form": "RNA", "matrix": "in vitro", "tested at": "365 nM", "setting": "natural RNA segment, single round, ends assumed", "relative to": "no-protein control", "reading": "higher = stronger binding", "Residues (chain)": "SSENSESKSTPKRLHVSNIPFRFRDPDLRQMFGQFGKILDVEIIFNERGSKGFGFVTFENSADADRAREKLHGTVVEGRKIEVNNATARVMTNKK"}
{"Oligonucleotide": "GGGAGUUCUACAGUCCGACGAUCUGCCUUUGUUCCAGAAGGCAUCAGGCCUCUAAAGACUGUCUCACAAGUGAUGCCCUUCUGGAGACUGAGGGUGUGGCCUUCCUCCCAUGCUCUCUCUGGGUGAGUGUGGGUGGAAUUCUCGGGUGCCAA", "RBNS enrichment (R)": 0.345}
{"Oligonucleotide": "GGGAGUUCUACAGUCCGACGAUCAACACUAAAAUGGAUUAGAAUUAUCUUAAAAGAUCCUUUAUAAAAUGACUUGUAUUGAUUGGUUUAUAACUUCACACAGGGGUGACAUAAAUGUAUAUCUUGAAAAAGAUUGGAAUUCUCGGGUGCCAA", "RBNS enrichment (R)": 0.597}
{"Oligonucleotide": "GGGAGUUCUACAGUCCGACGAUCAACGUGGUCAUCUGUGCCCGUGACGUCACCUGUGCCCGUGCGUGGCGUCCCCGUCUCCGUUGGGGCCAUUAGAAUGAGGCAGACACCAGGCCACUCUAGAAGCCGAGCCGUGGAAUUCUCGGGUGCCAA", "RBNS enrichment (R)": 0.338}
{"Oligonucleotide": "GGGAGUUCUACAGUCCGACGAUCAAGUGCAACCUUGUUUUAUCUUAUUGUUUUAUUUUUUAAGAAAGGAAAUCAUGUUCUUUUUUUAUAUCUCUAUAUAUAAGAUACAGAGUUGUUUGGUAAGGUUUGGGGUGUGGAAUUCUCGGGUGCCAA", "RBNS enrichment (R)": 0.388}
{"Oligonucleotide": "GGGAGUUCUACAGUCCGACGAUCCUUGUCCCUCUCACUCCCCAGCCCCACCCCUAAGUGCCCAAAGUGGGGAGGGACAAGGGAUUCUGGGAAGCUUGAGCCUCCCCCAAAGCAAUGUGAGUCCCAGAGCCCGCUGGAAUUCUCGGGUGCCAA", "RBNS enrichment (R)": 0.401}
{"Oligonucleotide": "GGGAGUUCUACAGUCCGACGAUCAACUAGCGAAAACCACCAGUCCAGACCUUAUCCAUUCUACUCAUUCACAGUUUUAAAAACUGCCAUGCAGUGAUUUCGGCACUCUGGGGCCAGACAGCAGCUCCCUGUCAUGGAAUUCUCGGGUGCCAA", "RBNS enrichment (R)": 0.651}
{"Oligonucleotide": "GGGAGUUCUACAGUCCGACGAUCAUUGCCUCUUUUUGUACAGAACUUUUGAGUGUGAAAUGAAAAUUAAAGUUUGGUACAUACACAGUUUAAAAUCAUGUUUGUAUAUGAUGCAUAGGCAAAAUGGAUGGCCCUGGAAUUCUCGGGUGCCAA", "RBNS enrichment (R)": 1.2}
{"Oligonucleotide": "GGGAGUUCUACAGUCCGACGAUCCUACAGCUGCCCCAUAACCCGUGGCUUAUCCCUGGCACGUGGGGCCACACCCCACGCCCCCUGGAUAGGCAACACUGUCCUGCUCCAGCCUGUGCUGAAAUGAACUGUACUGGAAUUCUCGGGUGCCAA", "RBNS enrichment (R)": 0.178}
{"note": "A few entries again (set 4):"}
{"Oligonucleotide": "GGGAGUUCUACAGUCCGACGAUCUGCCUUUGUUCCAGAAGGCAUCAGGCCUCUAAAGACUGUCUCACAAGUGAUGCCCUUCUGGAGACUGAGGGUGUGGCCUUCCUCCCAUGCUCUCUCUGGGUGAGUGUGGGUGGAAUUCUCGGGUGCCAA", "RBNS enrichment (R)": 0.345}
{"Oligonucleotide": "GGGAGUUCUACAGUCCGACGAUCAUUGCCUCUUUUUGUACAGAACUUUUGAGUGUGAAAUGAAAAUUAAAGUUUGGUACAUACACAGUUUAAAAUCAUGUUUGUAUAUGAUGCAUAGGCAAAAUGGAUGGCCCUGGAAUUCUCGGGUGCCAA", "RBNS enrichment (R)": 1.2}
{"Oligonucleotide": "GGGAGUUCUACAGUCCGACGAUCAACGUGGUCAUCUGUGCCCGUGACGUCACCUGUGCCCGUGCGUGGCGUCCCCGUCUCCGUUGGGGCCAUUAGAAUGAGGCAGACACCAGGCCACUCUAGAAGCCGAGCCGUGGAAUUCUCGGGUGCCAA", "RBNS enrichment (R)": 0.338}
{"Oligonucleotide": "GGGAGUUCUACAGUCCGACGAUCCUACAGCUGCCCCAUAACCCGUGGCUUAUCCCUGGCACGUGGGGCCACACCCCACGCCCCCUGGAUAGGCAACACUGUCCUGCUCCAGCCUGUGCUGAAAUGAACUGUACUGGAAUUCUCGGGUGCCAA", "RBNS enrichment (R)": 0.178}
{"Oligonucleotide": "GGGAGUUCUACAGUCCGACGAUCCUUGUCCCUCUCACUCCCCAGCCCCACCCCUAAGUGCCCAAAGUGGGGAGGGACAAGGGAUUCUGGGAAGCUUGAGCCUCCCCCAAAGCAAUGUGAGUCCCAGAGCCCGCUGGAAUUCUCGGGUGCCAA", "RBNS enrichment (R)": 0.401}
